Assay results pooled from the literature.
Compare with care: the assays were run in different laboratories. Values joined by “and” are separate records of one study, mostly repeats; a detail may differ.
TEC: Tyrosine-protein kinase Tec (TEC, Homo sapiens, UniProt P42680)
TEC phosphorylated: Tyrosine-protein kinase Tec, phosphorylated (TEC, Homo sapiens, UniProt P42680)

Compound | target | assay | test system | conditions | scale | measurement | result
CNC1C[S+]2CC[S+]3CC[S+](C1)[Ru-4]321([N]=C=S)[n]2c3ccc(OC)cc3c3c4c(c5cc(F)c[n+]1c5c32)C(=O)NC4=O (centres unmarked) | TEC | KinomeScan |  | 0.1 µM | relative to: untreated | remaining binding | 93%
Cc1ccc(-c2c(/C=C(\C#N)C(=O)NC(C)C)n(CCCO)c3ncnc(N)c23)cc1 | TEC | cell-free assay, competition with immobilised ligand |  | 1 µM |  | remaining binding | 84%
COc1cc(Nc2nccc(-c3cnn4nc(OC)ccc34)n2)cc(C(F)(F)F)c1 | TEC | binding, competition with immobilised ligand |  | 1 µM |  | remaining binding | 100%
Nc1ncc2c(n1)-c1c([nH]c3ccc(C4=CCOCC4)cc13)CCC2 | TEC | binding, competition with immobilised ligand |  | 1 µM |  | remaining binding | 90%
Cc1ccc(C(=O)Nc2ccc(CN3CCN(C)CC3)c(C(F)(F)F)c2)cc1C#Cc1cnc2cccnn12 | TEC | target engagement, NanoBRET | human cells |  |  | Hill slope | -8.91
Nc1ncc(-c2cc(-c3cnn(CC(F)(F)F)c3)ncc2F)nc1C(=O)NC1CNCC(F)C1 (centres unmarked) | TEC | enzyme activity |  | 1 µM | relative to: DMSO control | remaining activity | 96.3%
Cc1cccc(O[C@H]2CCC[C@@H](C(C)CNCc3ccncc3)C2)c1 (relative stereo) | TEC | enzyme activity, inhibitor |  | 1 µM |  | inhibition | 1%
CNC(=O)C1CCN(c2cc(C)c(F)cc2NC(=O)c2ccc(-c3cc(O)ccc3C)c(C)c2)CC1 | TEC | binding, competition with immobilised ligand |  | 1 µM |  | remaining binding | 71%
O=C(Cc1ccc(OCc2ccccc2)cc1)NC1(C(=O)O)CCN(C(=O)c2ccc(-c3cccc(Cl)c3)cc2)CC1 | TEC phosphorylated | enzyme activity, inhibitor |  | 10 µM |  | activity vs control | 115%
C=CC(=O)N1CCCC(n2c(=O)c3ncccc3n(Cc3ccc(Oc4ccccc4)cc3)c2=O)C1 (centres unmarked) | TEC | cell-free assay, competition with immobilised ligand |  | 1 µM |  | remaining binding | 85%
CN1CCN(Cc2ccc(-c3ccc(CO[C@H]4CCC[C@@H]4NC(=O)c4cc(-c5cnn(C)c5)cnc4N)cc3)cc2)CC1 | TEC | enzyme activity, inhibitor |  | 0.1 µM |  | inhibition | 7%
C=CC(=O)N1Cc2nc(-c3cc(-c4cc(Cl)cnc4Cl)c(F)cc3F)n(-c3ccncn3)c2C1 | TEC | cell-free assay, inhibitor |  | 1 µM |  | inhibition | > 50%
CN1CC[C@@H](COc2cnc(C#N)cc2-c2ccn3nc(NC(=O)C4CC4)cc3c2)C1 | TEC phosphorylated | enzyme activity, inhibitor |  | 1 µM |  | inhibition | 21%
CCn1cc(C(=O)O)c(=O)c2c(N)c(F)c(NC3CCCCC3)cc21 | TEC | kinase activity |  | 0.1 µM, together with: ATP at Km |  | inhibition | -3.5%
C=CC(=O)Nc1cccc(-c2cnc3[nH]cc(C(=O)NC(C)(C)C)c3n2)c1 | TEC | kinase activity |  | 0.1 µM |  | inhibition | 55% and 61%
NC(=O)C[C@H]1CCc2sc3ncnc(O[C@H]4CC[C@H](N5CCOCC5)CC4)c3c21 | TEC | enzyme activity, inhibitor |  | 10 µM |  | inhibition | 10%
CCN1CCN(Cc2ccc(C(=O)Nc3ccc(C)c(NCc4cnc5[nH]ccc5c4OC)c3)cc2C(F)(F)F)CC1 | TEC | binding, competition with immobilised ligand |  | 1 µM |  | remaining binding | 18%

Some of these lines once more:
Compound | target | assay | test system | conditions | scale | measurement | result
C=CC(=O)N1CCCC(n2c(=O)c3ncccc3n(Cc3ccc(Oc4ccccc4)cc3)c2=O)C1 (centres unmarked) | TEC | cell-free assay, competition with immobilised ligand |  | 1 µM |  | remaining binding | 85%
Cc1ccc(-c2c(/C=C(\C#N)C(=O)NC(C)C)n(CCCO)c3ncnc(N)c23)cc1 | TEC | cell-free assay, competition with immobilised ligand |  | 1 µM |  | remaining binding | 84%
